Measurements from different studies.
A part holds a random share of what one study measured.

Study 1
Target: TAR DNA-binding protein 43, full length, His tag (TARDBP, Homo sapiens, UniProt Q13148, residues 1-414)
Technique: RNA Bind-n-Seq
Form: RNA
Matrix: in vitro
Concentration: 20 nM
Notes: 6-mer, flanks averaged, single round
Added: 150 mM KCl
Reference: input library
Direction: higher = stronger binding
| Sequence | 6-mer enrichment (R) |
| --- | --- |
| GUCAUU | 0.615 |
| UAUCUG | 0.61 |
| GUCACC | 0.708 |
| CGUGCU | 0.755 |
| GCCGCA | 0.935 |
| AAGGGU | 1.91 |
| AACGAU | 0.597 |
| UGAACG | 0.952 |

Study 2
Target: RNA binding protein fox-1 homolog 2, RRM domain, GST-SBP tag (RBFOX2, Homo sapiens, UniProt O43251-10, residues 100-194)
Technique: RNA Bind-n-Seq
Form: RNA
Matrix: in vitro
Concentration: 365 nM
Notes: natural RNA segment, single round, ends assumed
Reference: no-protein control
Direction: higher = stronger binding
Constant ends, left off below: GGGAGUUCUACAGUCCGACGAUC … UGGAAUUCUCGGGUGCCAA
Residues (chain): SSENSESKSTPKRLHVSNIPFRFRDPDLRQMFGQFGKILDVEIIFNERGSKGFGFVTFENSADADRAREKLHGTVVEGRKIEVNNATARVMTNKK
| Sequence | RBNS enrichment (R) |
| --- | --- |
| GAUCAGUGUACAGAUUGUAUAUAGCGUCAUUUUUACGGAAACCCUUUUGGCGUGCAUAAGGAUCACUGUGUACACAUUGGCCAAGUGCUUCUGUAGAUAAUGUCUGUGGA | 0.289 |
| ACCAGCUGGCUUUGUGACCUUGGGCGAGUCGCCUCCCCUCUCUGAGCUGAAGCCGCCCCUCCCCUACUACAACAGGGGUCGGACUCCAUGUCUGAGCGGGGAGGAGGGUC | 0.286 |
| AAGGGGAAGUACAGGACUACAUGGAAUCUGAUUUCUGGUGUUGCUUAUUACCAAAAAUGACAGAAUAUUCUUGAUCAAAUGUCUAGAUAUAUUUUUAAUAUUUGGGGCAU | 0.658 |
| UUCAAUAAGGUGAAAUAUCAAUGAUUGGUACACAGUCACAAUGUACCGUUAAAAUAUGCACUAAGUCUCUUUUUUUUACAAAGGCUGAAUUCAGCAAGGCGCUAACUUGC | 0.58 |
| AGUUUUGCUAGAAGCUGGCGCUUCCUCCCCAGGGCAGGGGCCCCACAGCACCUCAGACCCCAAGUGUGUCUGGAGUUCCCUGUCGGCCAGGGAGAGGACACCAGCACCUG | 0.441 |
| AACUUUGAGCAAAUAGCAGUGAUGUUUUAGGAACUGAAAUGUCACACUUAAAGUCUUCAGCCCAGCUACUUCCCUAUUUUUGUGGGGAGAAGAGGGCCUGAUUAGAACUG | 0.243 |
| AAACCCGUGAAGCUCACCCAAGUGGAACACAGGGCUGCUUUCGAGUGGAAUGAAGAGGGGGCAGGAAGCAGCCCCAGCCCAGGCCUCCAGCCCGUCCGCCUCACCUUCCC | 0.423 |
| CAAACUUCAUUGUUGCUUUCUCUUCUGGCCUUGUAAUGUUUGAGUCAAGCCCUGCUUCUCAGCUAGUGAGCAUCAGCCCAAAGUCAGAACUCACAGGGGAUUCUCUGCAU | 1.25 |

Study 3
Target: Sal-like protein 4, full length isoform B (SALL4, Homo sapiens, UniProt Q9UJQ4-2, residues 1-616)
Technique: universal PBM
Form: double-stranded DNA, one strand shown
Matrix: in vitro
Concentration: not given
Notes: 8-mer, flanks averaged, mean of replicates
Direction: higher = stronger binding
Residues (chain): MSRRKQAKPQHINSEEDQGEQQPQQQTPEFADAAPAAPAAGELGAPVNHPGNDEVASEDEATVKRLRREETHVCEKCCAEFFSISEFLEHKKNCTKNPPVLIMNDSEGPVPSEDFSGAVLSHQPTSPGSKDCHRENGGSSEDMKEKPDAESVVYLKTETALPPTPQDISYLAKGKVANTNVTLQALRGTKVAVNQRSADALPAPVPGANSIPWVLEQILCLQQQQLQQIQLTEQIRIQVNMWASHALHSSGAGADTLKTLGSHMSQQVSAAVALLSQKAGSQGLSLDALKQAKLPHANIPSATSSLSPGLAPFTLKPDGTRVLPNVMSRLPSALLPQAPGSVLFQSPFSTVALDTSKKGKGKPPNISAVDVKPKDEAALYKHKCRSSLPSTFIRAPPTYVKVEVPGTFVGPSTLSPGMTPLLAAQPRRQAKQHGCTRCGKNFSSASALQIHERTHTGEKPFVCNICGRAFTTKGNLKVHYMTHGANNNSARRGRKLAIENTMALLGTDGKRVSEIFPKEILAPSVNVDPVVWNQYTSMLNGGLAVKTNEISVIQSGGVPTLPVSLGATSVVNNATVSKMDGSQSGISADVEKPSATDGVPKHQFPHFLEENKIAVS
| Sequence | E-score |
| --- | --- |
| TCCTACAA | 0.151 |
| CGTCTGGA | -0.254 |
| ATGGATCC | 0.0565 |
| TAACTGGA | 0.0601 |
| CGCGACTA | -0.121 |
| CAGGTGGG | -0.243 |
| AATTTGAA | 0.271 |
| AGAGTGAG | -0.0026 |

Single results of other studies
| Molecule | target | test | test system | conditions | scale | quantity | value |
| --- | --- | --- | --- | --- | --- | --- | --- |
| PhoQ, residues 284 288 289 292 302 303 WSHMKI | PhoP, residues 12 14 15 18 19 NQAHL (Escherichia coli, UniProt P23836) | Sort-seq, refers to: YFP reporter | E. coli | PhoQ-PhoP variant library, added: 10 µM Mg2+ | reference: high Mg2+ state, higher = stronger signaling | fold induction | 1.77 |

Repeated from above (study 2):
| Sequence | RBNS enrichment (R) |
| --- | --- |
| ACCAGCUGGCUUUGUGACCUUGGGCGAGUCGCCUCCCCUCUCUGAGCUGAAGCCGCCCCUCCCCUACUACAACAGGGGUCGGACUCCAUGUCUGAGCGGGGAGGAGGGUC | 0.286 |
| AAACCCGUGAAGCUCACCCAAGUGGAACACAGGGCUGCUUUCGAGUGGAAUGAAGAGGGGGCAGGAAGCAGCCCCAGCCCAGGCCUCCAGCCCGUCCGCCUCACCUUCCC | 0.423 |
| UUCAAUAAGGUGAAAUAUCAAUGAUUGGUACACAGUCACAAUGUACCGUUAAAAUAUGCACUAAGUCUCUUUUUUUUACAAAGGCUGAAUUCAGCAAGGCGCUAACUUGC | 0.58 |
